Results of several laboratories.
Lines come from different studies, so protocols differ. ± gives the spread as reported.

SMILES | assay | system | conditions | how to read | quantity | result
CN1CC[C@]23c4c5ccc(O)c4O[C@H]2[C@@H](O)C=C[C@H]3[C@H]1C5 | forced swim test | ICR mice | intrathecal, 2 nmol, 30 min before test, minutes 2 to 6 |  | immobility time | 170 ± 7.8 s
COc1ccsc1CNCC[C@@]1(c2ccccn2)CCOC2(CCCC2)C1 |  | healthy human, normal renal function, plasma | intravenous, 1 mg single dose, geometric mean |  | clearance | 922 mL/min
COc1ccc2c(c1)[C@]13CCCC[C@@H]1[C@H](C2)N(C)CC3 | refers to: MDA | rat, plasma | intraperitoneal, 30 mg/kg, three doses, added: MDMA 20 mg/kg oral | reference: MDMA with saline | pharmacokinetics | no effect
Cc1ncc2n1-c1ccc(Cl)cc1C(c1ccccc1F)=NC2 |  | human CYP3A5*3/*3 non-expressers, serum | oral, median, added: ketoconazole 400 mg |  | Tmax | 1 h
COc1ccc2[nH]cc(CCN(C)C)c2c1 |  | wild-type FVB/N mouse, serum | intraperitoneal, 2 mg/kg, added: harmaline 5 mg/kg i.p. pretreatment |  | AUC(0-inf) | 1.83 ± 0.25 µM·h
O=C(O)c1nn(Cc2ccc(Cl)cc2Cl)c2ccccc12 | cytochrome c release, ELISA | BALB/cByJ female mouse liver mitochondria | 30 min | reference: alamethicin maximal release | EC20 | > 800 µM
O=C(O)CC[C@H](NP(=O)(O)OC[C@H](NC(=O)CC[C@H](NC(=O)c1ccc([18F])cc1)C(=O)O)C(=O)O)C(=O)O | ex vivo biodistribution | male NCr nude mice, LNCaP PSMA+ xenograft, all other organs except kidney | 2 h | nonspecific uptake | tissue uptake | < 0.25 %ID/g
C#Cc1ccc2c(c1)C(c1ccccn1)=NCc1c(-c3cnco3)ncn1-2.Cl | shake flask | phosphate buffer | 24 h, pH 7, 25 °C |  | solubility | 5400 µg/mL
C=C1C[C@@H]2[C@H](CC[C@]3(C)C(=O)CC[C@@H]23)[C@@]2(C)C=CC(=O)C=C12 | LC-MS/MS | postmenopausal breast cancer women, plasma | oral, 25 mg/day steady state, 2 h post-dose, outlier excluded |  | plasma concentration range | 2.5 to 46.7 ng/mL
Cc1ncc2n1-c1ccc(Cl)cc1C(c1ccccc1F)=NC2 |  | healthy men, plasma | oral, 7.5 mg, day 26, geometric mean, added: 14 days post amenamevir |  | Cmax | 36.8 ng/mL
CCN(C(C)=O)c1cccc(-c2ccnc3c(C#N)cnn23)c1 |  | guinea pig Hartley male, hepatic S9 | 1 µM, pH 7.4, added: without NADPH |  | CLint | 6.73 ± 3.63 mL/min/kg
CCCCCn1cc(C(=O)c2cccc3ccccc23)c2ccccc21 |  | blood | 24 h, freeze-thaw and bench-top |  | deviation from nominal | ≤ 15%
N[C@@]1(c2ccccc2Cl)CCC[C@@H](O)C1=O |  | male CD-1 mice, plasma | intravenous, 50 mg/kg, 10 min, first sampling, not true peak |  | Cmax | 16000 ng/mL
Cc1ncc2n1-c1ccc(Cl)cc1C(c1ccccc1F)=NC2 |  | human, dried blood spots | dose not given, prasugrel alone session |  | AUC(0-6 h) | 0.31 ng·h/mL
CN1CC[C@@]23CCCC[C@@H]2[C@@H]1Cc1ccc(O)cc13 |  | Wistar rat, both sexes, plasma | oral, 5 mg/kg DEM, DEM 2 h after pretreatment, added: QN 2.5 mg/kg single pretreatment |  | MRT(0-t) | 4.09 ± 0.72 h
CCCCCCCCCCC(=O)O[C@H]1CC[C@H]2[C@@H]3CCC4=CC(=O)CC[C@]4(C)[C@H]3CC[C@]12C |  | blood of hypogonadal men, plain tubes | 300 ng/mL |  | serum testosterone | 242 ± 15.2 ng/dL
COc1ccc2c(c1)[C@]13CCCC[C@@H]1[C@H](C2)N(C)CC3 |  | Wistar rat, both sexes, plasma | oral, 5 mg/kg, 2 h after pretreatment, added: single TCE 400 mg/kg |  | AUC(0-t) | 149 ± 25.8 ng·h/mL
C[C@H]1CNCCc2ccc(Cl)cc21 |  | Sprague-Dawley rat, male, plasma | subcutaneous, 1 mg/kg, 30 min |  | plasma concentration | 27.5 ± 1.1 ng/mL
C[C@@H]1N=C(c2ccccc2F)c2cc(Br)ccc2NC1=O |  | male Wistar rat, plasma | intraperitoneal, 10 mg/kg, 20 min |  | concentration | 1590 nM

A few entries again:
SMILES | assay | system | conditions | how to read | quantity | result
O=C(O)c1nn(Cc2ccc(Cl)cc2Cl)c2ccccc12 | cytochrome c release, ELISA | BALB/cByJ female mouse liver mitochondria | 30 min | reference: alamethicin maximal release | EC20 | > 800 µM
O=C(O)CC[C@H](NP(=O)(O)OC[C@H](NC(=O)CC[C@H](NC(=O)c1ccc([18F])cc1)C(=O)O)C(=O)O)C(=O)O | ex vivo biodistribution | male NCr nude mice, LNCaP PSMA+ xenograft, all other organs except kidney | 2 h | nonspecific uptake | tissue uptake | < 0.25 %ID/g
C#Cc1ccc2c(c1)C(c1ccccn1)=NCc1c(-c3cnco3)ncn1-2.Cl | shake flask | phosphate buffer | 24 h, pH 7, 25 °C |  | solubility | 5400 µg/mL
